Results pooled from the literature.
Compare with care: the assays were run in different laboratories.
USP49 ZnF-UBD domain: Ubiquitin carboxyl-terminal hydrolase 49, ZnF-UBD domain (USP49, Homo sapiens, UniProt Q70CQ1)
Sequence of UniProt Q70CQ1 (whole entry, looked up): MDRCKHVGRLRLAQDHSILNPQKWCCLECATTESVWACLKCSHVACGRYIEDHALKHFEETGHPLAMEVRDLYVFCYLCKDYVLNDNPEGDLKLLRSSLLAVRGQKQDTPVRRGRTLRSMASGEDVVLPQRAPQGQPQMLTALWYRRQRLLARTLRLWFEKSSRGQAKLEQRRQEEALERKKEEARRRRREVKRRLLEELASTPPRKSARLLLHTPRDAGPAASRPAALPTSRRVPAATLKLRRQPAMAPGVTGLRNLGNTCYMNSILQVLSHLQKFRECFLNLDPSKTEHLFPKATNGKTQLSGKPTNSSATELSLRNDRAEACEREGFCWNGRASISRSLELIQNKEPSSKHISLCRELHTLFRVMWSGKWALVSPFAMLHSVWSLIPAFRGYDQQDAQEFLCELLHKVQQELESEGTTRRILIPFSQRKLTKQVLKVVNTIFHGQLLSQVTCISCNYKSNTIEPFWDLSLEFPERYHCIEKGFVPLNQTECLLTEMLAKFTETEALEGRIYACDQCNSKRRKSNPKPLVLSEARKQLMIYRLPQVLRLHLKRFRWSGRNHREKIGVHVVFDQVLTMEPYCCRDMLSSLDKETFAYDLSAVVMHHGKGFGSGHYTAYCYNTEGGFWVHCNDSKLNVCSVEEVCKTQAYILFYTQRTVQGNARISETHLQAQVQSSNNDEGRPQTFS

Compound	target or system	test	test system	setting	scale	endpoint	value
O=C(NC1CCNCC1)c1[nH]ncc1NC(=O)c1c(Cl)cccc1Cl	iCell Cardiomyocytes (hiPSC-derived)	xCELLigence Cardio impedance		concentration not given, 2 h	relative to: control	beat rate	94%
NS(=O)(=O)c1nnc(NC(=O)C2CCCC3(CCCCC3)C2)s1 (stereo not drawn)	Alpha-carbonic anhydrase (Enterococcus faecium, UniProt Q3XYE8)	CO2 hydration, inhibitor, stopped-flow kinetics				Ki	0.0625 µM
Nc1ncnc2c1ncn2[C@@H]1O[C@H](COP(=O)(O)OP(=O)(O)OP(=O)(O)OC[C@@H]2O[C@H](n3cnc4c(N)ncnc43)[C@@H](O)[C@H]2O)[C@@H](O)[C@H]1O		binding, equilibrium dialysis LC-MS		5 µM, thermostabilized A2AR-BRIL construct	relative to: no-protein control, direction not given	z-scored log2 fold change	1.06
c1cn2cc(-c3ccc4cn[nH]c4c3)nc(Nc3ccc(N4CCOCC4)cc3)c2n1	NLRP3 inflammasome (mouse)		mouse BMDM	10 µM		inhibition	4%
COc1cnc2cccc(N3CCc4c(cc(Cn5ccnc5C)cc4-c4cn(C)nc4C(F)(F)F)C3=O)c2c1	SNU-449	cell growth, inhibitor		120 h		EC50	> 30 µM
Oc1cccc(-c2nc(N3CCOCC3)c3oc4ncccc4c3n2)c1	iCell Cardiomyocytes (hiPSC-derived)	xCELLigence Cardio impedance		concentration not given, 2 h	relative to: control	beat rate	105%
CC(C)c1ccc2oc3nc(N)c(C(=O)O)cc3c(=O)c2c1	NLRP3 inflammasome (mouse)		mouse BMDM	10 µM		inhibition	35.5%
O=C(/C=C/C=C/C=C/C1CCCCC1)NC1=C[C@@](O)(/C=C/C=C/C=C/C(=O)NC2=C(O)CCC2=O)[C@@H]2O[C@@H]2C1=O	CAL-120	cell growth, CellTiter-Glo		78 h		GI50	26.4 µM
Cn1cc(-c2ccc(-c3cncc(Cl)c3N3CCC4(CCNC4=O)CC3)cc2)cn1	COLO 205	gene expression, microarray, item: CXCL16 mRNA		concentration not given, 6 h	relative to: untreated cells	log2 fold change	2.46
CNS(=O)(=O)C[C@H]1CC[C@H](N(C)c2[nH]cnc3nccc2-3)CC1	NLRP3 inflammasome (mouse)		mouse BMDM	10 µM		inhibition	81.1%
O=C(O)Cc1nc2ccccc2[nH]1	USP49 ZnF-UBD domain					Kd	> 1000 µM
O=CNc1ccccc1C(=O)O		binding, equilibrium dialysis LC-MS		5 µM, thermostabilized A2AR-BRIL construct	relative to: no-protein control, direction not given	z-scored log2 fold change	-0.0152
O=C(O)CNc1ncnc2ccccc12	USP49 ZnF-UBD domain					Kd	> 1000 µM
CS(=O)(=O)N1CCN(Cc2cc3nc(-c4cccc5[nH]ncc45)nc(N4CCOCC4)c3s2)CC1	iCell Cardiomyocytes (hiPSC-derived)	xCELLigence Cardio impedance		concentration not given, 2 h	relative to: control	beat rate	88.9%
CC1(C)CC(=O)c2c(C(F)(F)F)nn(-c3ccc(C(N)=O)c(N[C@H]4CC[C@H](O)CC4)c3)c2C1	human alphaherpesvirus 1	live-cell GFP imaging	primary human fibroblasts, K26 GFP			IC50	0.05 µM
O=C(CO)[C@@H](O)[C@H](O)[C@H](O)COP(=O)(O)O		binding, equilibrium dialysis LC-MS		5 µM, thermostabilized A2AR-BRIL construct	relative to: no-protein control, direction not given	z-scored log2 fold change	0.126
COC(=O)[C@@H](CCSC)NCc1cc2ccccc2nc1SC	Pseudomonas aeruginosa			32 µg/mL, without pentamidine	relative to: control	growth	92.7%
CC(C)(C)c1nc(-c2cccc(NS(=O)(=O)c3c(F)cccc3F)c2F)c(-c2ccnc(N)n2)s1	NLRP3 inflammasome (mouse)		mouse BMDM	10 µM		inhibition	28.3%
O=P(O)(O)OC1O[C@H](CO)[C@@H](O)[C@H](O)[C@@H]1O (stereo partly drawn)		binding, equilibrium dialysis LC-MS		5 µM, thermostabilized A2AR-BRIL construct	relative to: no-protein control, direction not given	z-scored log2 fold change	0.126
O=C(/C=C\n1cnc(-c2cc(C(F)(F)F)cc(C(F)(F)F)c2)n1)NNc1ccccn1	human alphaherpesvirus 1		K26 GFP, 3D skin equivalent, air-liquid		relative to: CC50 over IC50	selectivity index	> 66.7
N[C@@H](CO)C(=O)O		binding, equilibrium dialysis LC-MS		5 µM, thermostabilized A2AR-BRIL construct	relative to: no-protein control, direction not given	z-scored log2 fold change	0.282
CC[C@@H]1C(=O)N(C)c2cnc(Nc3ccc(C(=O)NC4CCN(C)CC4)cc3OC)nc2N1C1CCCC1	iCell Cardiomyocytes (hiPSC-derived)	xCELLigence Cardio impedance		concentration not given, 2 h	relative to: control	beat rate	90.4%
C=CC(=O)Nc1cccc(Nc2nc(Nc3ccc(OCCOC)cc3)ncc2F)c1	NLRP3 inflammasome (mouse)		mouse BMDM	10 µM		inhibition	36.8%
CC(O)(CC(=O)O)CC(=O)SCCNC(=O)CCNC(=O)[C@H](O)C(C)(C)COP(=O)(O)OP(=O)(O)OC[C@H]1O[C@@H](n2cnc3c(N)ncnc32)[C@H](O)[C@@H]1OP(=O)(O)O (stereo partly drawn)		binding, equilibrium dialysis LC-MS		5 µM, thermostabilized A2AR-BRIL construct	relative to: no-protein control, direction not given	z-scored log2 fold change	-0.269

Some of these lines once more:
Compound	target or system	test	test system	setting	scale	endpoint	value
O=C(/C=C/C=C/C=C/C1CCCCC1)NC1=C[C@@](O)(/C=C/C=C/C=C/C(=O)NC2=C(O)CCC2=O)[C@@H]2O[C@@H]2C1=O	CAL-120	cell growth, CellTiter-Glo		78 h		GI50	26.4 µM
Cn1cc(-c2ccc(-c3cncc(Cl)c3N3CCC4(CCNC4=O)CC3)cc2)cn1	COLO 205	gene expression, microarray, item: CXCL16 mRNA		concentration not given, 6 h	relative to: untreated cells	log2 fold change	2.46
